Measured values collected from several papers.
Several values in a cell are separate wells, animals, samples, runs or records. ± marks the error that the study gave.

| Compound | cell line | assay | conditions | how to read | quantity | value |
| --- | --- | --- | --- | --- | --- | --- |
| COc1cc([C@@H]2O[C@@H](c3cc(OC)c(O[C@@H]4O[C@H](CO)[C@@H](O)[C@H](O)[C@H]4O)c(OC)c3)[C@H](CO)[C@H]2CO)cc(OC)c1O | PCS-210-010 human pre-adipocytes | lipid accumulation, inhibitor, Oil Red O staining | maturation stage | – | lowest effective concentration | 20 µM |
| Cc1ccc(-n2cc(CSc3nc4ccccc4n3Cc3cn(-c4ccc(C)cc4)nn3)nn2)cc1 | Caco-2 | MTT | 3.91 ppm | – | cytotoxicity | 5.5% |
| CNS(=O)(=O)Nc1nccc(Cc2c(C)c3ccc(Oc4ncccc4F)cc3oc2=O)c1F | SNU-213 | cell viability, CellTiter-Glo | 7 days | – | IC50 | 164 nM |
| CCCCCCCCCCCCCCCC(=O)OCC(CSC[C@H](N)C(=O)N[C@@H](CO)C(=O)N[C@@H](CCCCN)C(=O)N[C@@H](CCCCN)C(=O)N[C@@H](CCCCN)C(=O)N[C@@H](CCCCN)C(=O)NCCCCCC(=O)N[C@@H](CCCCN)C(=O)N[C@@H](CC(C)C)C(=O)N[C@H](C(=O)N[C@@H](Cc1ccccc1)C(=O)N[C@@H](Cc1ccccc1)C(=O)N[C@@H](Cc1ccc2ccccc2c1)C(=O)O)C(C)C)OC(=O)CCCCCCCCCCCCCCC (stereo partly shown) | BV-2 | RNA-seq, refers to: Clec10a | concentration not given | – | mRNA level | 4.83 FPKM and 4.18 FPKM and 5.55 FPKM |
| [2H]C([2H])([2H])C1(C([2H])([2H])[2H])NC(=O)N(c2ccc(F)c(C(C)(F)F)c2)C1=O | LAPC4 | refers to: KLK3, FKBP5, ZFP36L1 | up to 10 µM, together with: DHT | – | mRNA level | no effect |
| N#Cc1cccc(/C=C/C(=O)c2ccc(O)cc2)c1 | U-87 MG | refers to: CDCA7 | concentration not given | baseline: untreated | fold change | 0.056 |
| CCCC[N+]1=c2cc3c4cc2[O][Mn-2]1(=[C]=O)(=[C]=O)(=[C]=O)[n+]1ccc(cc1)C(=O)OCCOCCOC(=O)c1cc[n+](cc1)[Mn-2](=[C]=O)(=[C]=O)(=[C]=O)([O]3)[N+]=4CCCC | HEK293 | MTT | 50 µM, 48 h, photolysed compound | – | viability reduction | 48% |
| CCN(C(=O)c1cc(F)ccc1Oc1nncnc1N1CCC2(C1)CN([C@H](CCCN(C)CCOC)C(C)C)C2)C(C)C | MT-3 | cell growth or viability | 7 days | – | GI50 | > 10000 nM |
| CO[C@@H]1[C@@H](OC(N)=O)[C@@H](O)[C@H](Oc2ccc3c(O)c(NC(=O)c4ccc(O)c(CC=C(C)C)c4)c(=O)oc3c2C)OC1(C)C | DLD-1 BRCA2-/- | – | 75 µM, replicate 2 | – | colony count | 12.5 |
| Cc1ncsc1-c1ccc(C(C)NC(=O)C2CC(O)CN2C(=O)C(NC(=O)CCCCCCCCCCN2CCCC(Nc3ncc(Cl)c(Nc4ccccc4S(=O)(=O)C(C)C)n3)C2)C(C)(C)C)cc1 (stereo not shown) | 22Rv1 | RNA-seq, refers to: TSSK6 mRNA | concentration not given | baseline: DMSO | log2 fold change | -2.1 |
| Cn1ncc2cc(-c3cncc(Cl)c3N3CCC4(CCNC4=O)CC3)ccc21 | LS174T | gene expression, microarray, refers to: RAG1 mRNA | concentration not given, 4 h | baseline: untreated cells | log2 fold change | -2.21 |
| COC(=O)c1cc(NC2=NC(=O)C(=Cc3ccc(N(C)C)cc3)S2)ccc1OC(C)=O | MCF7 | GC-MS, refers to: 11-Eicosenoic acid | 1 µM | baseline: DMSO | metabolite level | -0.74 fold change |
| CCn1nc(Cl)c2c1-c1cnc(N)c(c1)O[C@H](C)c1cc(F)ccc1-c1nn(C)cc1C2 | NB1 (ALK amplification, exon 2-3 deletion) | cell viability | – | – | Emax | 80.5% |
| Nc1ncn([C@@H]2O[C@H](CO)[C@@H](O)[C@H]2O)c(=O)n1 | AML blasts, primary, RUNX1-mutated | CD34+ blast expansion | 30 nM, HUVEC co-culture | – | inhibition | 0% |
| CC[C@H](CO)Nc1nc(NCc2ccc(-c3ccccn3)cc2)c2ncn(C(C)C)c2n1 | MOLT-4 | tandem mass tag proteomics, refers to: P11926 | 1 µM, 1 h | baseline: DMSO | log2 fold change | -2.42 |
| NCCOc1cc(NC(=O)c2cc(Cl)cc(C(=O)Nc3cc(OCCN)c4ccccc4n3)n2)nc2ccccc12 | U2OS | cell viability, CellTiter-Glo | 72 h | baseline: IC50 U2OS over WI-38 | selectivity ratio | 2 |
| CC(C)c1ccc(N(C)c2ccc3c(c2)OCC[C@H]3CNc2cnccc2C(=O)O)cc1 | NCI-H524 | cell growth or viability, ATP luminescence | 7 days | – | IC50 | 6.85 nM |

| Compound | cell line | assay | conditions | how to read | quantity | value |
| --- | --- | --- | --- | --- | --- | --- |
| Cc1[nH]c(=S)[nH]c(=O)c1/N=N/c1nnc(S)[nH]1 | Vero | cell viability, MTT | 10.0 µg/mL | – | inhibition | 19.5 ± 2.91% |
| O=C(C[Se]C(=O)C12CC3CC(CC(C3)C1)C2)Nc1cccc(C(F)(F)F)c1 | NCI60 non-small-cell lung subpanel | cell growth | 10 µM, 48 h, one-dose | – | mean growth percent | -57.9% |
| Cc1ccc([N+](=O)[O-])cc1S(=O)(=O)N(C)/N=C/c1cnc2ccc(Br)cn12 | HuT78 | IL-6 signalling pathway, NanoString IPA | 50 nM, 10 h | direction not given | activation z-score | -3.11 |
| Cn1ncc(-c2ccc3c(=O)[nH]nc(CN)c3c2)c1-c1c(F)c(Cl)cc(OC2CC2)c1C#N | SNU668 | cell viability, CellTiter-Glo | 120 h | – | IC50 | 140 nM |
| CC(=O)Oc1ccccc1C(=O)[Se]CC(=O)Nc1cccc(C(F)(F)F)c1 | NCI60 non-small-cell lung subpanel | cell growth | 10 µM, 48 h, one-dose | – | mean growth percent | -46.2% |
| CN(C)c1ccc(-n2cc(COC(=O)[C@@]3(C)C=C(C(=O)OC(C)(C)C)C(=O)CC3)nn2)cc1 | HeLa | quantitative western blot | concentration not given, 0 (unit not given), together with: EGF | – | pRSK/tubulin ratio | 0.0823 |
| COc1ccc2c(c1)c(CC(=O)[Se]CC(=O)Nc1cccc(C(F)(F)F)c1)c(C)n2C(=O)c1ccc(Cl)cc1 | NCI60 non-small-cell lung subpanel | cell growth | 10 µM, 48 h, one-dose | – | mean growth percent | -91.5% |
| CCN1CCN(Cc2ccc(C(=O)Nc3ccc(C)c(NCc4cnc5[nH]ccc5c4OC)c3)cc2C(F)(F)F)CC1 | SNU-1040 | – | 1 µM, 3 days | baseline: vehicle, 100% DMSO | cell growth | 85% |
| Cc1nc(NCCOCCOCCNc2ncc(C(=O)NC3=NN(c4ccc(Cl)c(Cl)c4)CC3)c(C)n2)ncc1C(=O)NC1=NN(c2ccc(Cl)c(Cl)c2)CC1 | EM-2 | cell growth or viability, ATP luminescence | 72 h | – | EC50 | 35 nM |
| O=C(C[Se]C(=O)c1cc2ccccc2o1)Nc1cccc(C(F)(F)F)c1 | NCI60 ovarian subpanel | total growth inhibition, inhibitor | five-dose | – | mean TGI | 3590 nM |
| CCCCCCc1cccc(C(O)CC(CO)NC(=O)CCCCCCCCCCNC(C)=O)c1 (stereo not shown) | HeLa | CERT activity, HPLC-MS/MS lipidomics, refers to: ceramide 16 | 1 µM, 24 h, not cell-number normalised | – | ceramide level | 22400 pmol/sample and 16100 pmol/sample and 21500 pmol/sample |
| C=CC(=O)N1[C@H](c2ccc3c(c2)OCO3)c2[nH]c3ccccc3c2C[C@@H]1C(=O)NC1CC1 | rat DRG neurons | – | 1.111 µM, 48 h, together with: vincristine 40 nM | – | mean neuron degeneration | 22.1% |
| COc1cc(N2CCN(C(=O)C3CCCN3)CC2)ccc1Nc1ncc(Cl)c(Nc2ccccc2P(C)(C)=O)n1 (stereo not shown) | Ba/F3 EML4-ALK | flow cytometry | concentration not given, 3 h | – | late apoptotic cells | 8.61% and 6.84% and 7.2% |
| O=C(C[Se]C(=O)c1cc2ccccc2s1)Nc1cccc(C(F)(F)F)c1 | NCI60 non-small-cell lung subpanel | cell growth | 10 µM, 48 h, one-dose | – | mean growth percent | -83.3% |
| CN1CCCNC(=O)c2cccc(c2)C(=O)NCCCN(C)CCCNc2cccc3c2C(=O)c2cccc(c2C3=O)NCCC1 | SAS | RNA-Seq, refers to: EIF2S3 mRNA | 1 µM, 6 h | baseline: untreated cells | log2 fold change | -0.615 |
| CCN(CC)CC(=O)Nc1cccc(-n2cc(-c3ccc4ccc(-c5cn(-c6cccc(NC(=O)CN(CC)CC)c6)nn5)cc4c3)nn2)c1 | RCC4 | PCR angiogenesis array, refers to: SERPINE1 | 5 x IC50, 6 h, normoxia | baseline: untreated | fold regulation | -2.32 |
| Cc1[nH]c(=S)[nH]c(=O)c1/N=N/c1nnc(S)s1 | Vero | cell viability, MTT | 0.625 µg/mL | – | inhibition | 12.1 ± 1.25% |

Excerpt of the above:
| Compound | cell line | assay | conditions | how to read | quantity | value |
| --- | --- | --- | --- | --- | --- | --- |
| COc1cc(N2CCN(C(=O)C3CCCN3)CC2)ccc1Nc1ncc(Cl)c(Nc2ccccc2P(C)(C)=O)n1 (stereo not shown) | Ba/F3 EML4-ALK | flow cytometry | concentration not given, 3 h | – | late apoptotic cells | 8.61% and 6.84% and 7.2% |
| N#Cc1cccc(/C=C/C(=O)c2ccc(O)cc2)c1 | U-87 MG | refers to: CDCA7 | concentration not given | baseline: untreated | fold change | 0.056 |
